Measurements from different studies.
Each numbered part is a random draw from the data of one study; scales do not carry over between parts. Changes are numbered by the printed parent chain.
Sequence of UniProt P27361 (whole entry, looked up): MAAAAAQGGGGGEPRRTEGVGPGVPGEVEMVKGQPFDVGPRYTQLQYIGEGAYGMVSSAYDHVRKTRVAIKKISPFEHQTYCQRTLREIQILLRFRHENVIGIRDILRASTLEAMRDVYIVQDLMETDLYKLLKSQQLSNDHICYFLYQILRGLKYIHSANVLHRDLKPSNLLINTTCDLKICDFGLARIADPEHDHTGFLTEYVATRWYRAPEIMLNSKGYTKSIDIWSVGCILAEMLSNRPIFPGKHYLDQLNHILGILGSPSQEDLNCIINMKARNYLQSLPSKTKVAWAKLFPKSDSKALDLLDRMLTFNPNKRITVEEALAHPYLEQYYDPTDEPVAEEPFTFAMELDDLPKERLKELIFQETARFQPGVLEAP
Sequence of UniProt P30291 (whole entry, looked up): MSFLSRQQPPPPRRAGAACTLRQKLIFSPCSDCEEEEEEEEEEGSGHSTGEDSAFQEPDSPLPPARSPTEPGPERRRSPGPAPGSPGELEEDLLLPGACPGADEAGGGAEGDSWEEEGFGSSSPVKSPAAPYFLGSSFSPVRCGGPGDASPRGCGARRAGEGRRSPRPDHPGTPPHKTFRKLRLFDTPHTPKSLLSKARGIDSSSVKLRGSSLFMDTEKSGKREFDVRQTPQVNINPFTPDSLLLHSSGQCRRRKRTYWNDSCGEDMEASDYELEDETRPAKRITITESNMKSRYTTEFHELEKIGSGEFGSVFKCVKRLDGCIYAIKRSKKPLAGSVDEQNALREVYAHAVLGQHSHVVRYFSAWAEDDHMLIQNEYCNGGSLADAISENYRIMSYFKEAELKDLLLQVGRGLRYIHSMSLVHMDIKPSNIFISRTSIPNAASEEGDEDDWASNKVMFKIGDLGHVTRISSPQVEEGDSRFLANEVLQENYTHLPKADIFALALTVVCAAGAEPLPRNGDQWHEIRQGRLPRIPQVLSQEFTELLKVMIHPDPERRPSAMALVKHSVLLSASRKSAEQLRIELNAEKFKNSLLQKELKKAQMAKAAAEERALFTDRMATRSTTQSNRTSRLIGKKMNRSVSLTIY
Sequence of UniProt P42684 (whole entry, looked up): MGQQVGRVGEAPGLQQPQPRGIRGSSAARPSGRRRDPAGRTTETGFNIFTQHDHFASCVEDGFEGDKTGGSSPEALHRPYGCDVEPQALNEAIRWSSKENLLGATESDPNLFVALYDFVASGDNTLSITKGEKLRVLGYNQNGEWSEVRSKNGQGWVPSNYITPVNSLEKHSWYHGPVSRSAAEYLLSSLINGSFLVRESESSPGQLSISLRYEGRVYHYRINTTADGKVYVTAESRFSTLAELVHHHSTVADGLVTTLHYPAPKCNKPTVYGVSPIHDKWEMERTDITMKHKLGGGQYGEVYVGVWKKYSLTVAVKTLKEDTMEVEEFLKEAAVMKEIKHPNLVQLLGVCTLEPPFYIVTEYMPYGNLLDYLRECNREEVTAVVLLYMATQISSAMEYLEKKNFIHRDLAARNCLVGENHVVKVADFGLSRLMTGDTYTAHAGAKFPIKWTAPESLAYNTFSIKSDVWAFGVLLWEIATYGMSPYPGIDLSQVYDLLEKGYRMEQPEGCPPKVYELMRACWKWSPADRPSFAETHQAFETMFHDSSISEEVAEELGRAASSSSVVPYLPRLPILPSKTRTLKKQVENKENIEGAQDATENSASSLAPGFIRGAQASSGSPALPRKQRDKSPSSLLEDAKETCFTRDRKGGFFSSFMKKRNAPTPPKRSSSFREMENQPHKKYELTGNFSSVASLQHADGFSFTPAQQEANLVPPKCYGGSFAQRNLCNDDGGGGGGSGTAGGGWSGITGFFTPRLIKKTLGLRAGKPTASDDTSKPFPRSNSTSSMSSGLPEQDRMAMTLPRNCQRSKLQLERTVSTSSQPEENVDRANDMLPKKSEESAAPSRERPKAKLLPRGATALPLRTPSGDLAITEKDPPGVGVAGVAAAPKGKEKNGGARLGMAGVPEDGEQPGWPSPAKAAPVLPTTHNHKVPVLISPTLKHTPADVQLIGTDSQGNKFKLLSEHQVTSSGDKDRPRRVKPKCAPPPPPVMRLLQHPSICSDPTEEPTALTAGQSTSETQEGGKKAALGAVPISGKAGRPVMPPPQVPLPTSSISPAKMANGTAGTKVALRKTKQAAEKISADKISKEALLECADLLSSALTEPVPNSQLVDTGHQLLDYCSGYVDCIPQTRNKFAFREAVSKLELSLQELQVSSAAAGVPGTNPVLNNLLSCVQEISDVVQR
Sequence of UniProt Q6PHR2 (whole entry, looked up): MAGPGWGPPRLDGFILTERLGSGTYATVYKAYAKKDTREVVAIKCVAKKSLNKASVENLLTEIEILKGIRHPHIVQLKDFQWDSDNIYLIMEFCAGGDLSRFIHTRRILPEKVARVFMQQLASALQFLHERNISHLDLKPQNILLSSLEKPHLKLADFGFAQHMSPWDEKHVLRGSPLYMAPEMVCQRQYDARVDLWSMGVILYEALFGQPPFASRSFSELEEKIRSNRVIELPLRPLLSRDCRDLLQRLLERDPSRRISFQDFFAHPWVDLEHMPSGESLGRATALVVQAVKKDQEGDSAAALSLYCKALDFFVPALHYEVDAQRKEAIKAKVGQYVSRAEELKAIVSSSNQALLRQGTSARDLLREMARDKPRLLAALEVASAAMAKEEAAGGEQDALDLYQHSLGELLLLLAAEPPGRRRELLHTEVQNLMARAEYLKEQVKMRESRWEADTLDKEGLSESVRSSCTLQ
Sequence of UniProt Q9H4B4 (whole entry, looked up): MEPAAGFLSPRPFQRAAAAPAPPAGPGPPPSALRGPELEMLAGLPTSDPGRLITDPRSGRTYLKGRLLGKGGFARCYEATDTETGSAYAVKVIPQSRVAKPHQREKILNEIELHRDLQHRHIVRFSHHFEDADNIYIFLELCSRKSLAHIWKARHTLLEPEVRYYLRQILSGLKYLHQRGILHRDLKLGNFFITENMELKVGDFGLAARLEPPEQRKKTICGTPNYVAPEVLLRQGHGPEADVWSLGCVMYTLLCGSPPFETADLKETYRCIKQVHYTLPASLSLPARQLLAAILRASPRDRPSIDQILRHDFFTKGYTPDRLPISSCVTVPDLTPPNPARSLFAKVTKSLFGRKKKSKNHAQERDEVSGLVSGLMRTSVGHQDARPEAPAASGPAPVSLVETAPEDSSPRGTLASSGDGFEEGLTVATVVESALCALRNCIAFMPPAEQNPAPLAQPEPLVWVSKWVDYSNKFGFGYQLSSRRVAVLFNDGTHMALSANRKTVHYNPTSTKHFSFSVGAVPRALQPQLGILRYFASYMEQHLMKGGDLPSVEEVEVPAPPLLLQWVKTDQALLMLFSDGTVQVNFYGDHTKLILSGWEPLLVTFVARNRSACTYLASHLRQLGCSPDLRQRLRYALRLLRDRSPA
Sequence of UniProt P53667 (whole entry, looked up): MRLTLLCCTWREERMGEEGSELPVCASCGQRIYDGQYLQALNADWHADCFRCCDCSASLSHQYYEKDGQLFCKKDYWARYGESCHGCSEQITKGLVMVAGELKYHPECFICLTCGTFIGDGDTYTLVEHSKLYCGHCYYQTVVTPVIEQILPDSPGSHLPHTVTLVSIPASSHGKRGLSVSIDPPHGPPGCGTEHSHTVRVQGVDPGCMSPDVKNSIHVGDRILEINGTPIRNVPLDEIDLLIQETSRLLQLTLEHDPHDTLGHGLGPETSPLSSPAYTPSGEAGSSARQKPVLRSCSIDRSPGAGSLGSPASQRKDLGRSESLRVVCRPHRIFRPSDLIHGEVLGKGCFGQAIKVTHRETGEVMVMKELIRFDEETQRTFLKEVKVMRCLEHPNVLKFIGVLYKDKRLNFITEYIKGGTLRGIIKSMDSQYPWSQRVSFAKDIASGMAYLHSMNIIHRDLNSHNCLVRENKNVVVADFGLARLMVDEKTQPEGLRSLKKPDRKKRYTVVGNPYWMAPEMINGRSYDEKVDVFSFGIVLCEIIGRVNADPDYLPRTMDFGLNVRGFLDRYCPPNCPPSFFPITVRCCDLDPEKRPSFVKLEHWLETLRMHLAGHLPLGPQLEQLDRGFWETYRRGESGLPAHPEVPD
Sequence of UniProt P36896 (whole entry, looked up): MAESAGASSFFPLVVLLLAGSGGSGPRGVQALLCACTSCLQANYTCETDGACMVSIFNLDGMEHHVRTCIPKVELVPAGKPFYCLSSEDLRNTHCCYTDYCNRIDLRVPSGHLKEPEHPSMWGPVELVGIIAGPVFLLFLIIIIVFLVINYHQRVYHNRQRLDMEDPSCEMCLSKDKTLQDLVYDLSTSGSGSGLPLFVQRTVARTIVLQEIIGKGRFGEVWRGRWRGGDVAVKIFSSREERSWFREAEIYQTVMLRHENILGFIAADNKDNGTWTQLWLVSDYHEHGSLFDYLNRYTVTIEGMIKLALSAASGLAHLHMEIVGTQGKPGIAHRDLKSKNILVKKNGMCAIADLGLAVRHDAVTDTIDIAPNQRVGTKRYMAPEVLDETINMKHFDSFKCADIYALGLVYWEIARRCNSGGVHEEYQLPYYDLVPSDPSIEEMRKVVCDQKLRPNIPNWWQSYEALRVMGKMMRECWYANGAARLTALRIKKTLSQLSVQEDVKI

Study 1
Target: NFE2L1, bZIP domain (human)
Method: DHFR protein complementation
Medium: yeast
Setting: single substitutions, most at no-binding floor
Reference: wild-type JUN-FOS pair
Direction: higher = stronger binding
Starting sequence: JUN, bZIP domain (human); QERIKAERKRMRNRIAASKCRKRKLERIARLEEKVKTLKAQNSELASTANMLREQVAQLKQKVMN; partner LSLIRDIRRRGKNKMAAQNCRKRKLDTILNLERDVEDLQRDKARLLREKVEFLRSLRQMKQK
| Change | binding fitness [natural log] |
| --- | --- |
| A29M | -1.5 |
| S47R | -1.34 |
| L38A | -1.51 |
| Q55H | -1.45 |
| V35M | -1.55 |
| M51E | -1.5 |
| A46P | -1.5 |
| S43R | -1.41 |

Study 2
SMILES: CC(C)(C)n1nc(Cc2cccc3ccccc23)c2c(N)ncnc21
Read-out: enzyme activity
Action: inhibitor
Tested at: 0.5 µM
Reference: control
| target | remaining activity [%] |
| --- | --- |
| ACVR1B (Homo sapiens, UniProt P36896) | 104 |
| MAP3K5 (Homo sapiens, UniProt Q99683) | 95.2 |
| GRK7 (Homo sapiens, UniProt Q8WTQ7) | 106 |
| TAOK2 (Homo sapiens, UniProt Q9UL54) | 89.3 |
| MAPK3 (Homo sapiens, UniProt P27361) | 92 |
| MAPKAPK2 (Homo sapiens, UniProt P49137) | 100 |
| ABL2 (Homo sapiens, UniProt P42684) | 79 |
| ULK3 (Homo sapiens, UniProt Q6PHR2) | 97.3 |
| TEK (Homo sapiens, UniProt Q02763) | 99.7 |
| ARAF (Homo sapiens, UniProt P10398) | 93.6 |
| FRK (Homo sapiens, UniProt P42685) | 57.7 |
| CSNK1G3 (Homo sapiens, UniProt Q9Y6M4) | 101 |
| NEK1 (Homo sapiens, UniProt Q96PY6) | 83.6 |
| WEE1 (Homo sapiens, UniProt P30291) | 84.6 |

Study 3
Target: Eukaryotic initiation factor 4A-I (EIF4A1, Homo sapiens, UniProt P60842, residues 1-406, full length assumed)
Sequence of UniProt P60842 (whole entry, looked up): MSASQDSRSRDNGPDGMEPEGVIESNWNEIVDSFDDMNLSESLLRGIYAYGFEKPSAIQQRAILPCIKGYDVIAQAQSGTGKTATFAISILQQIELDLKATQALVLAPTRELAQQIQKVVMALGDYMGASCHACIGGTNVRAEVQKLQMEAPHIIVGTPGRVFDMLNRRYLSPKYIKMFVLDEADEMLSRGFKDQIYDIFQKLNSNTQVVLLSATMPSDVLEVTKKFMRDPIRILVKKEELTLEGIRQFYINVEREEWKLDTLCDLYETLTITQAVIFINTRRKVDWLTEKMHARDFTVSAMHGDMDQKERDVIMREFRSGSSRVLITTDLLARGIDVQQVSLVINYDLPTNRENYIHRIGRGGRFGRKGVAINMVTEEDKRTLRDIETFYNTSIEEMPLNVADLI
Method: RNA Bind-n-Seq
Molecule type: RNA
Medium: in vitro
Tested at: 90 pmol
Setting: 4-mer, random 30-nt RNA, single round
Added: 3 µM DMDA-PatA, 2 mM ADP, 2 mM phosphate
Reference: input library
Direction: higher = stronger binding
| Oligonucleotide | 4-mer enrichment [fold] |
| --- | --- |
| UAUU | 1.02 |
| UGAG | 1.58 |
| AGUG | 1.89 |
| ACCC | 0.71 |
| UGGC | 1.08 |
| AGAC | 0.721 |
| UAAC | 0.691 |
| ACGU | 0.704 |

Study 4
Structure (SMILES): CC1=C(C#N)[C@@H](c2ccc3[nH]nc(C)c3c2)C(C#N)=C(c2ccc(Cl)cc2)N1
Read-out: cell-free assay
Method: competition with immobilised ligand
Tested at: 1 µM
| target | remaining binding [%] |
| --- | --- |
| LIM domain kinase 1 (LIMK1, Homo sapiens, UniProt P53667) | 100 |
| EPHB3 (Homo sapiens, UniProt P54753) | 100 |
| PLK3 (Homo sapiens, UniProt Q9H4B4) | 77.5 |
| ALK (Homo sapiens, UniProt Q9UM73) | 84.7 |
| MAP4K1 (Homo sapiens, UniProt Q92918) | 93.1 |
| GRK2 (Homo sapiens, UniProt P25098) | 88.1 |
| LATS1 (Homo sapiens, UniProt O95835) | 100 |
| FLT3 (Homo sapiens, UniProt P36888, N841I) | 100 |
| MERTK (Homo sapiens, UniProt Q12866) | 100 |
| PAK5 (Homo sapiens, UniProt Q9P286) | 100 |
| MAPK3 (Homo sapiens, UniProt P27361) | 100 |

Excerpt of the above (study 4):
| target | remaining binding [%] |
| --- | --- |
| FLT3 (Homo sapiens, UniProt P36888, N841I) | 100 |
| LIM domain kinase 1 (LIMK1, Homo sapiens, UniProt P53667) | 100 |
| EPHB3 (Homo sapiens, UniProt P54753) | 100 |
| PLK3 (Homo sapiens, UniProt Q9H4B4) | 77.5 |
| MAPK3 (Homo sapiens, UniProt P27361) | 100 |
